Literature values as cited in several papers.
Numbered parts are unrelated; values within a part may stem from several laboratories. Values joined by “and” are separate records of one study, mostly repeats; a detail may differ. ± gives the spread as reported.
Sequence of UniProt P0DMS8 (whole entry, looked up): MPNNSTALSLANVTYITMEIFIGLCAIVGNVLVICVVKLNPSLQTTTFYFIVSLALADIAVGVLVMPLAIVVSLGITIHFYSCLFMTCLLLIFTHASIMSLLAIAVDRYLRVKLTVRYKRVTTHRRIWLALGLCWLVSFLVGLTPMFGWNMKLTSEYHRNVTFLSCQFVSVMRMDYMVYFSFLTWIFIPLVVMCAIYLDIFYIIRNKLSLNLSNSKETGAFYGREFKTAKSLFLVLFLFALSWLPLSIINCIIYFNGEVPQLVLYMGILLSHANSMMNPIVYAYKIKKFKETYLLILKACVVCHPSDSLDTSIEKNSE

Study 1
Target: HLA class I histocompatibility antigen, A alpha chain, allele A*80:01 (Homo sapiens, UniProt P04439)
Observed: peptide-MHC binding
Molecule type: peptide
| Sequence | IC50 [nM] |
| --- | --- |
| ESEVDDPAM | > 20000 |
| RAWDPQPAM | > 20000 |
| TMRTPLFPW | > 20000 |
| WTLAKPDFV | > 20000 |
| SAYYLDIGF | > 20000 |
| ATPHSVWVF | > 20000 |
| HQIWLALRY | 8 |
| LEGLADAIW | > 20000 |
| FAAPHRGVA | > 20000 |
| DEFLKVPEW | > 20000 |
| ALTDLGLIY | 1.93 |
| YLQYSISTA | > 20000 |
| PSYQLPLPM | > 20000 |
| WQDGGWQSV | > 20000 |
| SVFALLPPQ | > 20000 |
| FTGWRDPGL | > 20000 |
| VSFDQNLDY | 19 |
| GYLHDFLKY | > 20000 |
| CASSSDWFY | > 20000 |
| KLHCTERSL | > 20000 |
| VYQRGTHPF | > 20000 |
| TFMDHVLRY | 110 |
| LIDGRTSFY | 14.9 |
| MPWLDNIVE | > 20000 |
| QCFSVVLRY | 11 |

Further values, each from its own experiment
D(4) dopamine receptor: D(4) dopamine receptor (Rattus norvegicus, UniProt P30729)
Sequence of UniProt P30729 (whole entry, looked up): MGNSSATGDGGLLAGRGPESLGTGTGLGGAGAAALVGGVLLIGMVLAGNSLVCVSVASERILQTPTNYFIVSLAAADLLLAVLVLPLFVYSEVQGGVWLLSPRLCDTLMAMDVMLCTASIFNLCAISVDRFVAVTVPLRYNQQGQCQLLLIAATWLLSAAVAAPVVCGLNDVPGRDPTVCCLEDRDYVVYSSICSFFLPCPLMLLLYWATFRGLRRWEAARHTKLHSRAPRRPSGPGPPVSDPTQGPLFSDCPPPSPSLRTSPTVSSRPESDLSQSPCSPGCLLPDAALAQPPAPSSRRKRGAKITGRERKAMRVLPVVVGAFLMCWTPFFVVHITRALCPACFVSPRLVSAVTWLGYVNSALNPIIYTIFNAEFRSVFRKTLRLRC
| Compound | tested on | test | system | setting | how to read | measurement | result |
| --- | --- | --- | --- | --- | --- | --- | --- |
| CCN(CC)CCCC(C)Nc1c2ccc(Cl)cc2nc2ccc(OC)cc12 (centres unmarked) | – | – | guinea pig liver microsomes | – | – | intrinsic clearance | 81.3 µL/min/mg protein |
| CCC[C@@H](C(=O)Nc1cnccc1C)c1cccc(Cl)c1 | main protease (Mpro) | – | – | 20 µM | – | inhibition | 77.9% |
| Nc1nc2nc[nH]c2c(=O)[nH]1 | class I riboswitch variant, Ppe | – | – | single binding equivalent | – | Kd | 351 ± 99 nM |
| C/C=C1/CN2CC[C@]34C(=C(C(=O)OC)[C@H]1C[C@H]23)Nc1ccccc14 | kappa opioid receptor | radioligand binding | – | added: [3H]CI-977 | – | Ki | 200 nM |
| CCCCCc1cc(O)c2c(c1)OC(C)(C)[C@@H]1CCC(C)=C[C@@H]21 | – | – | mice | dose not given | – | body temperature reduction | ~6 °C |
| C[C@H](NC(=O)[C@H](CCC(N)=O)NC(=O)CCCCNC(=N)N)C(=O)N[C@@H](CCCNC(=N)N)C(=O)c1nc2ccccc2s1 | Prothrombin (F2, Homo sapiens, UniProt P00734) | – | – | – | – | Ki | 337 ± 71 nM |
| COc1c(-c2ccc3cc(NS(C)(=O)=O)ccc3c2)cc(-n2ccc(=O)[nH]c2=O)cc1C(C)(C)C | hepatitis C virus | viral replication, replicon | genotype 1b | – | – | EC50 | 0.3 nM |
| Nc1cccc2c1C(=O)N(C1CCC(=O)NC1=O)C2=O (centres unmarked) | – | – | human, relapsed/refractory multiple myeloma | continuous dosing | – | MTD | 2 mg |
| CCCCCCCCCCCCCC(=O)OCC1OC(n2ccc(N)nc2=O)CS1 (centres unmarked) | HIV | – | – | concentration not given, cell-free virus, at least | baseline: lamivudine | anti-HIV activity fold | 16 to 36 fold |
| C/C=C1/CN2CC[C@]34C(=C(C(=O)OC)[C@H]1C[C@H]23)Nc1ccc(I)cc14 | kappa opioid receptor | adenylyl cyclase inhibition | – | – | – | IC50 | 5.7 nM |
| CC(C)Oc1cccnc1N(C)C1CCN(Cc2ccc(I)cc2)CC1 | D(4) dopamine receptor | binding | – | – | – | Ki | 0.27 ± 0.1 nM |
| Cc1ccncc1NC(=O)Cc1cccc(Br)c1 | main protease (Mpro) | – | – | 20 µM | – | inhibition | 56.2% |
| CCCCCCCCCCCCCC(=O)O[C@@H]1[C@@H](C)[C@@]2(O)[C@@H](C=C(CO)C[C@]3(O)C(=O)C(C)=C[C@@H]23)[C@@H]2C(C)(C)[C@]12OC(C)=O | phorbol ester receptor | radioligand binding | – | – | – | Ki | 0.59 nM |
| N#CCNC(=O)c1ccc(-c2ccnc(Nc3ccc(N4CCOCC4=O)cc3)n2)cc1 | JAK1/2 and ACVR1 | – | – | – | baseline: momelotinib | relative potency | ~0.4 |
| COc1ccc(C[C@H]2NC[C@H](O)[C@H]2OC(C)=O)cc1 | Trypanosoma brucei | parasite growth | – | – | – | IC50 | 100 nM |
| CN[C@H](CC(=O)O)C(=O)O | Glutamate receptor ionotropic, NMDA 2B, with GluN1 (Grin2b, Rattus norvegicus, UniProt Q00960) | – | – | concentration not given | – | EC50 | 21400 nM and 21000 nM |
| c1ccc2c(c1)OCC(C1=NCCN1)O2 (centres unmarked) | imidazoline I2 receptor, brain | radioligand binding | – | – | – | Ki | 8 nM |
| S=C=NCCc1ccccc1 | CYP2E1 | inhibitor | – | – | – | Ki | 1000 nM |
| c1ccc(-c2ncc(CN3CCN(c4ncccn4)CC3)[nH]2)cc1 | D(4) dopamine receptor | binding | – | – | – | Ki | 0.3 ± 0.04 nM |
| CCN(CC)CCOc1ccc2c(c1)C(=O)c1cc(OCCN(CC)CC)ccc1-2 | – | – | guinea pig liver microsomes | – | – | intrinsic clearance | 114 µL/min/mg protein |
| Cc1cccc(-c2[nH]c(CNc3ccccc3F)nc2-c2ccc3ncnn3c2)n1 | – | – | rat, female | 13 weeks, repeated dose | – | NOAEL | 10 mg/kg/day |
| CC(O)CN1CCN(CC(=O)[O-])CCN(CC(=O)[O-])CCN(CC(=O)[O-])CC1.[Gd+3] (centres unmarked) | – | – | saline | 310 K, 0.47 T | – | relaxivity r1 | 3.5 mM⁻¹ s⁻¹ |
| CC[C@H](C)CCCCC(=O)N[C@@H](CCN)C(=O)N[C@H](C(=O)N[C@@H](CCN)C(=O)N[C@H]1CCNC(=O)[C@H]([C@@H](C)O)NC(=O)[C@H](CCN)NC(=O)[C@H](CCN)NC(=O)[C@H](CC(C)C)NC(=O)[C@@H](CC(C)C)NC(=O)[C@H](CCN)NC1=O)[C@@H](C)O | – | – | patients | below 3 mg/kg/day (ideal body weight) | – | nephrotoxicity incidence | 54.5% |
| N=c1c2c(-c3ccccc3)c(-c3ccccc3)n(Cc3ccccc3)c2ncn1[C@H]1CC[C@H](O)CC1 | – | – | KPC mouse, pancreatic tumour | dose not given | – | intratumoral concentration | 4 µM |
| COc1cc(CCNc2nc(C#Cc3ccccc3)nc3c2ncn3[C@H]2[C@H](O)[C@H](O)[C@@H]3C[C@@H]32)ccc1O | ADORA3 (Homo sapiens, UniProt P0DMS8) | – | – | – | baseline: unsubstituted N6 analogue | affinity enhancement | 2 fold |

For quick reference, copied from above (study 1):
| Sequence | IC50 [nM] |
| --- | --- |
| SAYYLDIGF | > 20000 |
| ATPHSVWVF | > 20000 |
| HQIWLALRY | 8 |
| LEGLADAIW | > 20000 |
| FAAPHRGVA | > 20000 |
| DEFLKVPEW | > 20000 |
| ALTDLGLIY | 1.93 |
| YLQYSISTA | > 20000 |
